Measured values collected from several papers.
Every numbered part comes from another study and shows a few of its results, in no order. “And” joins repeats or separate records; there may be more than shown.
UniProt Q15349, sequence (whole entry, looked up): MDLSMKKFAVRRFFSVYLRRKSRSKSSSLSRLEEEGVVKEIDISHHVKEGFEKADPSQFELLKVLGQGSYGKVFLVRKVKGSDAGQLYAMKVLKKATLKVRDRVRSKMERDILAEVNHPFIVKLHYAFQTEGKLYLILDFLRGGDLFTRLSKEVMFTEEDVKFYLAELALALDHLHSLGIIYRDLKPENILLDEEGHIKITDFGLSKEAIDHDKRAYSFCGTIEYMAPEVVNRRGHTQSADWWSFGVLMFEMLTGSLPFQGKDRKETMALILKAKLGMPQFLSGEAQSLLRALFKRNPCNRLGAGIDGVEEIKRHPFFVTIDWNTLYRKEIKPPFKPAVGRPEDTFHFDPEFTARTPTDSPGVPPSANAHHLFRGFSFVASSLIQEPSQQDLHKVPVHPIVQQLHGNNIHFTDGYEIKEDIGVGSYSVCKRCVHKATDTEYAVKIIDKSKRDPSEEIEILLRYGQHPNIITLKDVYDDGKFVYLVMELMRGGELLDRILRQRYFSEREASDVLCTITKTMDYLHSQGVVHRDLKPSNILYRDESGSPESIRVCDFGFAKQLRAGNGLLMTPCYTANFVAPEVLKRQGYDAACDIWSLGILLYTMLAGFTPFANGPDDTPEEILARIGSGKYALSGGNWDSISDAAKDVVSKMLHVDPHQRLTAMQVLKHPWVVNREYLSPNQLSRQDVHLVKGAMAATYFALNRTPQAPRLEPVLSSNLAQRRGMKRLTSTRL
UniProt P11362, sequence (whole entry, looked up): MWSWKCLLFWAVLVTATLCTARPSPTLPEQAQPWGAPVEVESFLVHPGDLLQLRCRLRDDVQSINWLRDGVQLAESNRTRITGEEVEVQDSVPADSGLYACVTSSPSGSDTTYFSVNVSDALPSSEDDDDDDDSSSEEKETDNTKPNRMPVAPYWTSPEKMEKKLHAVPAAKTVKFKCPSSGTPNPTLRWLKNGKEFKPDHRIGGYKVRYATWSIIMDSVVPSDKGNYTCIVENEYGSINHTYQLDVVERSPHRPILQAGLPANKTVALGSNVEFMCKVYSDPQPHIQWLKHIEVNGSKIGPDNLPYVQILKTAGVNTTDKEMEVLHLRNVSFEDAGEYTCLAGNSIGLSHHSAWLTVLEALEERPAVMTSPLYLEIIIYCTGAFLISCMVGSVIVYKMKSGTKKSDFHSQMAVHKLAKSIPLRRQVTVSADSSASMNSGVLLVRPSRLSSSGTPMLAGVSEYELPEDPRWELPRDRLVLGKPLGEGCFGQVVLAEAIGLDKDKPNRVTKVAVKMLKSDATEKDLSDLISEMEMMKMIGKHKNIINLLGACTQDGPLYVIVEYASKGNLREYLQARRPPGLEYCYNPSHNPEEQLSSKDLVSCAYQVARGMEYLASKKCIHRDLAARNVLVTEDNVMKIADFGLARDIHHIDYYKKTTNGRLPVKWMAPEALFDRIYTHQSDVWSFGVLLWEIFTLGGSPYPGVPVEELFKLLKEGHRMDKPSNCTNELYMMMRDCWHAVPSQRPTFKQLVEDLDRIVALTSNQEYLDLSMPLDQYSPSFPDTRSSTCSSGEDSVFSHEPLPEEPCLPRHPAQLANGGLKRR
UniProt P21917, sequence (whole entry, looked up): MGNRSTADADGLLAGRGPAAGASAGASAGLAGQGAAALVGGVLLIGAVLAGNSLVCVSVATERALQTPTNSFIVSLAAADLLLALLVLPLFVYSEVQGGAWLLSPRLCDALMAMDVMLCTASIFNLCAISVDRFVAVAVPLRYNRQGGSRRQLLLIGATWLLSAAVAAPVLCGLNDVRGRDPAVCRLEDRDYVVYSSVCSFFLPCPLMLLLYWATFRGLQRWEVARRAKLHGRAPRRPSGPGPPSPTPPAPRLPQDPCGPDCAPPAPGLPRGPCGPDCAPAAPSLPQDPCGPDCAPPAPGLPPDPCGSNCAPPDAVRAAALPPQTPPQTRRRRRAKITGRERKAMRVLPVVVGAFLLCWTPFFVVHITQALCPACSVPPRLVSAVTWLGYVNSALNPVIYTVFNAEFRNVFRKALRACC
UniProt P10398, sequence (whole entry, looked up): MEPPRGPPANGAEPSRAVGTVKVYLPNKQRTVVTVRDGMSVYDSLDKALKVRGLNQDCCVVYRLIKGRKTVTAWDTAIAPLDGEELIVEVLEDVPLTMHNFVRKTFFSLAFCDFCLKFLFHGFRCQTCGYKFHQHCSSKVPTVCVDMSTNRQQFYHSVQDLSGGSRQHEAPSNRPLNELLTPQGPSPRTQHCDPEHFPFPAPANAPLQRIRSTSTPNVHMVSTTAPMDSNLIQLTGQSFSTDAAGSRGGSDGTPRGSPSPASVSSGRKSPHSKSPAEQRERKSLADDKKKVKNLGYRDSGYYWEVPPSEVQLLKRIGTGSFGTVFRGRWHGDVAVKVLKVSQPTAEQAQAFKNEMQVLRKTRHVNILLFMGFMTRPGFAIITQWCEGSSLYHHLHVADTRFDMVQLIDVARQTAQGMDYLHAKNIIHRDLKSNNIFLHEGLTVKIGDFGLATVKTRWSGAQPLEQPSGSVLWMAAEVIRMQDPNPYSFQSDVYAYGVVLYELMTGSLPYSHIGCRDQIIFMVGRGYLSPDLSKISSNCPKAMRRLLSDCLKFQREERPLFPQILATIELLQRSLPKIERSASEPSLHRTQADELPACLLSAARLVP
UniProt P36896, sequence (whole entry, looked up): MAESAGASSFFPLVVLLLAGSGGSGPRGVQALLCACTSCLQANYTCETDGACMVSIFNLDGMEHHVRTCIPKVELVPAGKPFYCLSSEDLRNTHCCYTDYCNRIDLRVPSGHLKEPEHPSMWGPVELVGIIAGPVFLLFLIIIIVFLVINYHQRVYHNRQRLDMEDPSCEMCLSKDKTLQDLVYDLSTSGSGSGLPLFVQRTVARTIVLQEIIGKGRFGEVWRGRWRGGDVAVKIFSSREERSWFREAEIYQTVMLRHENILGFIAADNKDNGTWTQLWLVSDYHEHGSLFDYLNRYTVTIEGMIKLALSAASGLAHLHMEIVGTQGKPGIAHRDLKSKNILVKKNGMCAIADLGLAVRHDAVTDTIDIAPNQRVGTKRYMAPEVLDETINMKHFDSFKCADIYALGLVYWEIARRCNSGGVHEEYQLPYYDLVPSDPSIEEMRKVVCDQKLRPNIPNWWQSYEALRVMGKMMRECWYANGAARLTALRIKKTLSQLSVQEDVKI
UniProt P78368, sequence (whole entry, looked up): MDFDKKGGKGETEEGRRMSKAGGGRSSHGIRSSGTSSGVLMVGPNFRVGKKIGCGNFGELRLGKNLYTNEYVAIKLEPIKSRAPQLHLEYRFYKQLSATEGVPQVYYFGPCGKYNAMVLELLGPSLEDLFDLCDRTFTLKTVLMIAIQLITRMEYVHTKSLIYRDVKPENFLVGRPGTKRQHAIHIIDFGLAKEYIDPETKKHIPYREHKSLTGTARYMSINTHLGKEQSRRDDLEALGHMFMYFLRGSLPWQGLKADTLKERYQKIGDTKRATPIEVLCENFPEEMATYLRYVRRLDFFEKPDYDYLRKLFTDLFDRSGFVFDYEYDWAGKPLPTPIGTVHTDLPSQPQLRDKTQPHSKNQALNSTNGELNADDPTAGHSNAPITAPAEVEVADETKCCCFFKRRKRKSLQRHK
UniProt P29320, sequence (whole entry, looked up): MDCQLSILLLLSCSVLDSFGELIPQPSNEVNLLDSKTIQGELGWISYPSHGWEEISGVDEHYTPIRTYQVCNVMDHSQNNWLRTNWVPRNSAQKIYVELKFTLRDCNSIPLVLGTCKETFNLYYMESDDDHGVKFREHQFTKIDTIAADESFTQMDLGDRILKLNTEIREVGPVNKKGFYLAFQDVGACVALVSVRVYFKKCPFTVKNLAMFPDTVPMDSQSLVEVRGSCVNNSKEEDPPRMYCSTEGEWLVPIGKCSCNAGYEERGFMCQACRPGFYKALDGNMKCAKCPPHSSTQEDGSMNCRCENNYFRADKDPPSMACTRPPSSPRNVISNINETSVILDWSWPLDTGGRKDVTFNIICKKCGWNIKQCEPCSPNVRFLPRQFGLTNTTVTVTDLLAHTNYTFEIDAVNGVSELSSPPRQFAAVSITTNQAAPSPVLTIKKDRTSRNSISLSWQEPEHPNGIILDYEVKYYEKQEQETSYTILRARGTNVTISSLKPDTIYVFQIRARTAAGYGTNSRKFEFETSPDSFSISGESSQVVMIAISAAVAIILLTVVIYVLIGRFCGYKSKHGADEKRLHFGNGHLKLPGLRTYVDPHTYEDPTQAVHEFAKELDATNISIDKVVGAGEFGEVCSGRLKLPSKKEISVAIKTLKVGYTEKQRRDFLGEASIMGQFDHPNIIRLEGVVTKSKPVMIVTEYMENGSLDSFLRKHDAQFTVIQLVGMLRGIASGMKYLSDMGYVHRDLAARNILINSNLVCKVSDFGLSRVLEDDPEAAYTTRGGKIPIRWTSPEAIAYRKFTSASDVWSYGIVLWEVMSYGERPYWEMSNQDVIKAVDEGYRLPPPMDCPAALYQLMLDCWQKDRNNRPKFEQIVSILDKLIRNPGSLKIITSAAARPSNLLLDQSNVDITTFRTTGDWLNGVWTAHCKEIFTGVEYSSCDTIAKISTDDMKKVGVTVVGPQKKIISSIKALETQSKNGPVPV
UniProt P49137, sequence (whole entry, looked up): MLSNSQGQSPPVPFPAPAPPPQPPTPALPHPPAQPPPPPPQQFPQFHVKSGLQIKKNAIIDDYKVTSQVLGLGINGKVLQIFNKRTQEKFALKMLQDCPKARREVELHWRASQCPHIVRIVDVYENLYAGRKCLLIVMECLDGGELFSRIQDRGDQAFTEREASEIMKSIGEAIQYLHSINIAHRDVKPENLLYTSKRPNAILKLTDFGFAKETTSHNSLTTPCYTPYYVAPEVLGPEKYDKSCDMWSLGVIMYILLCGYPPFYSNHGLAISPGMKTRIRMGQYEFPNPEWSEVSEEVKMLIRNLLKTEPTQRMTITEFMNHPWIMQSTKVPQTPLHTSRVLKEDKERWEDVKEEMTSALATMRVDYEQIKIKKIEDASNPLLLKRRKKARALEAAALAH

Block 1
Compound: CCCCCCCCCCCCCCCCOP(=O)([O-])OCC[N+](C)(C)C
Cell line: THP-1
Observed: host cell growth
concentration | inhibition
0.2 µM | -0.35% and -2.26% and -1.5% and -0.49% and -1.44% and -0.41%
0.002 µM | 0.37% and -1.4% and -1.09% and -0.34% and -0.23% and -0.37%
1 µM | -0.17% and -4.62% and -0.84% and -0.22% and -0.6% and -1.86%

Block 2
Structure (SMILES): COc1ccc(COc2ccc(Cc3cnc(N)nc3N)cc2OC)cc1
Observed: enzyme activity
Mode: inhibitor
Concentration: 0.5 µM
Reference: control
target | remaining activity [%]
Serine/threonine-protein kinase Nek6 (NEK6, Homo sapiens, UniProt Q9HC98) | 99.4
Ephrin type-A receptor 3 (EPHA3, Homo sapiens, UniProt P29320) | 109
Serine/threonine-protein kinase A-Raf (ARAF, Homo sapiens, UniProt P10398) | 96.6
MAP kinase-activated protein kinase 2 (MAPKAPK2, Homo sapiens, UniProt P49137) | 103
Mitogen-activated protein kinase kinase kinase 14 (MAP3K14, Homo sapiens, UniProt Q99558) | 81.8
Macrophage-stimulating protein receptor (MST1R, Homo sapiens, UniProt Q04912) | 104
Tyrosine-protein kinase Lck (LCK, Homo sapiens, UniProt P06239) | 96.3
Serine/threonine-protein kinase ULK2 (ULK2, Homo sapiens, UniProt Q8IYT8) | 105
Casein kinase I isoform gamma-2 (CSNK1G2, Homo sapiens, UniProt P78368) | 101
Tyrosine-protein kinase Mer (MERTK, Homo sapiens, UniProt Q12866) | 90.3
Serine/threonine-protein kinase TAO2 (TAOK2, Homo sapiens, UniProt Q9UL54) | 94.7
Fibroblast growth factor receptor 1 (FGFR1, Homo sapiens, UniProt P11362) | 108
Serine/threonine-protein kinase TBK1 (TBK1, Homo sapiens, UniProt Q9UHD2) | 103
Wee1-like protein kinase (WEE1, Homo sapiens, UniProt P30291) | 90.3
Mitogen-activated protein kinase kinase kinase 5 (MAP3K5, Homo sapiens, UniProt Q99683) | 89
Rhodopsin kinase GRK7 (GRK7, Homo sapiens, UniProt Q8WTQ7) | 104
Activin receptor type-1B (ACVR1B, Homo sapiens, UniProt P36896) | 97.8
Angiopoietin-1 receptor (TEK, Homo sapiens, UniProt Q02763) | 101
Ribosomal protein S6 kinase alpha-2 (RPS6KA2, Homo sapiens, UniProt Q15349) | 105
Tyrosine-protein kinase JAK3 (JAK3, Homo sapiens, UniProt P52333) | 95.9
Dual specificity mitogen-activated protein kinase kinase 2 (MAP2K2, Homo sapiens, UniProt P36507) | 101

Block 3
Organism: Sarcocystis neurona
Observed: parasite growth
Concentration: concentration not given
Compound | inhibition [%]
NC(=O)OCC(COC(N)=O)c1ccccc1.O | -10.7
Cl.c1ccc2c(c1)CCCC2C1=NCCN1 (stereo not shown) | -17.4
COc1nc(C)nc(Cl)c1NC1=NCCN1.Cl | -16.2
CCC(C)(C)N=C(NC#N)Nc1cccnc1 | -12.4
C[C@]12C=CC(=O)C=C1CC[C@@H]1[C@@H]2[C@@H](O)C[C@@]2(C)[C@H]1CC[C@]2(O)C(=O)COC(=O)CCC(=O)[O-].[Na+] | -8.5
COc1ccc(C(=O)NCc2ccc(OCCN(C)C)cc2)cc1OC.Cl | -18.6
O=C(N[C@H](CO)[C@H](O)c1ccc([N+](=O)[O-])cc1)C(Cl)Cl | 1.8
Cl.Cn1c(NCCN(CCO)CCCc2ccc([N+](=O)[O-])cc2)cc(=O)n(C)c1=O | -14

Block 4
SMILES: Cn1cnc(Cn2ccc3ccc(CNCc4[nH]c5ccccc5c4[C@H]4NC(=O)c5ccc(O)cc54)cc32)c1
Target: GTPase KRas (KRAS, Homo sapiens, UniProt P01116, G12C)
Observed: binding
Mode: competitor
Technique: NanoBRET
Cells: HEK293
Reference: vehicle and 20 µM BI compound
concentration | time | normalized BRET
2.22 µM | 1 h | 19% and 17.6% and 15.4% and 17.2%
1.02 nM | 4 h | 76.8% and 96.4% and 90.3% and 79.3%
247 nM | 2 h | 99.6% and 87% and 88.2% and 96.1%
741 nM | 4 h | 43% and 41.5% and 50.9% and 49%
339 pM | 3 h | 122% and 95.2% and 81.5% and 88.4%
339 pM | 4 h | 83.8% and 84.4% and 85.5% and 99.2%

Block 5
Host: human
Medium: microsomes or S9
Concentration: 2 µM
Time: 0.5 h
SMILES | remaining compound
Cc1cc(N2CCC(C(=O)NC(C)(C)C)CC2)nc(Nc2ccc(C#N)c(C(F)(F)F)c2)n1 | 83.8%
Cc1nc(NC(C)Cc2ccccc2)c2sc3nc4c(cc3c2n1)COC(C)(C)C4 (stereo not shown) | 81.9%
CC1(C)CC(NS(=O)(=O)c2ccccc2F)CC(C)(C)N1 | > 99%
CCOc1cc(=O)n2c(c1C(=O)N1CCN(C3CCCCC3)CC1)CCCCC2 | 71.6%
CCOC(=O)N1C[C@H]2CCCN(C(=O)C3CCCN3S(=O)(=O)c3ccc(C)cc3)[C@@H]2C1 (stereo partly shown) | 6.51%
COc1ccc(COc2ncnc3sc(C)c(C)c23)cc1F | 1.61%

Block 6
SMILES: CN(C)C(=O)Cn1cc(-c2nc(C3(c4ccc(-c5cnc(N)nc5)cc4)CC3)no2)cn1
Observed: cell-free assay
Concentration: 10 µM
target | inhibition
Alpha-1A adrenergic receptor (ADRA1A, Homo sapiens, UniProt P35348) | 13.9%
Muscarinic acetylcholine receptor M2 (CHRM2, Homo sapiens, UniProt P08172) | -0.311%
D(3) dopamine receptor (DRD3, Homo sapiens, UniProt P35462) | -2.44%
Beta-1 adrenergic receptor (ADRB1, Homo sapiens, UniProt P08588) | 7.58%
D(4) dopamine receptor (DRD4, Homo sapiens, UniProt P21917) | 1.18%

A few entries again (block 4):
concentration | time | normalized BRET
2.22 µM | 1 h | 19% and 17.6% and 15.4% and 17.2%
1.02 nM | 4 h | 76.8% and 96.4% and 90.3% and 79.3%
247 nM | 2 h | 99.6% and 87% and 88.2% and 96.1%
741 nM | 4 h | 43% and 41.5% and 50.9% and 49%
339 pM | 3 h | 122% and 95.2% and 81.5% and 88.4%
339 pM | 4 h | 83.8% and 84.4% and 85.5% and 99.2%
